Results from different studies.
Lines come from different studies, so protocols differ. Numbers after ± are the reported error.
Cell line: HL-60

| Structure (SMILES) | assay | conditions | scale | measurement | result |
| --- | --- | --- | --- | --- | --- |
| CC(C)(O)C(O)Cc1c(O)cc(/C=C/c2ccccc2)cc1O (centres unmarked) | reactive oxygen species, inhibitor, fluorescence |  |  | IC50 | 9.5 µg/mL |
| CCCN(CCC)c1ccc(C=O)cc1 | cell differentiation, NBT staining | up to 50 µM, 144 h, added: retinal 1 µM | relative to: retinal alone | inhibition | 30% |
| N=C(CF)NCCC[C@H](NC(=O)c1ccccc1)C(N)=O.O=C(O)C(F)(F)F | MTT | 1 µM, added: doxorubicin |  | viability | 8.14 ± 5.1% |
| CCN(CC)c1ccc(C=O)cc1 | cell differentiation, NBT staining | up to 50 µM, 144 h, added: retinal 1 µM | relative to: retinal alone | inhibition | 30% |
| O=C(O)c1cc(O)c2c(c1)C(=O)c1cccc(O)c1C2=O | cell growth or viability, ATP luminescence | 24 h |  | IC50 | 150 µM |
| CC(C)/C=C/c1c(O)cc(/C=C/C2=CC(=O)OC2CC(=O)O)cc1O (centres unmarked) | reactive oxygen species, inhibitor, fluorescence |  |  | IC50 | 0.3 µg/mL |
| CC(C)C[C@H](NC(=O)[C@H](C)NC(=O)[C@H](CC(N)=O)NC(=O)[C@H](CCC(=O)O)NC(=O)[C@@H](N)CCCCN)C(=O)N[C@@H](CC(C)C)C(=O)N[C@@H](CCCNC(=N)N)C(=O)N[C@@H](Cc1ccc(O)cc1)C(=O)N[C@@H](CC(C)C)C(=O)N[C@@H](CC(C)C)C(=O)N[C@@H](CC(=O)O)C(=O)N[C@@H](CCCCN)C(=O)N[C@@H](CC(=O)O)C(=O)NCC(=O)NCC(=O)NCC(=O)N[C@@H](CCCNC(=N)N)C(=O)N[C@@H](CCCNC(=N)N)C(=O)N[C@@H](CCCNC(=N)N)C(=O)N[C@@H](CCCNC(=N)N)C(=O)N[C@@H](CCCNC(=N)N)C(=O)N[C@@H](CCCNC(=N)N)C(=O)N[C@@H](CCCNC(=N)N)C(=O)N[C@@H](CCCNC(=N)N)C(=O)N[C@@H](CCCNC(=N)N)C(N)=O | measured: p21 | 10 µM, 24 h, added: 1α,25(OH)2D3 30 nM | relative to: GAPDH | mRNA level | decreased |
| COc1ccc(/C=C/C(=O)CC2(O)C(=O)Nc3cc(Br)ccc32)cc1 (centres unmarked) | cell growth or viability, MTT | 24 h |  | IC50 | 22.9 µM |
| CC(C)=CCC/C(C)=C/Cc1c(O)cc(/C=C/c2ccc(O)cc2O)cc1O | reactive oxygen species, inhibitor, fluorescence |  |  | IC50 | 0.8 µg/mL |
| CC(C)C[C@H](NC(=O)[C@H](C)NC(=O)[C@H](CC(N)=O)NC(=O)[C@H](CCC(=O)O)NC(=O)[C@@H](N)CCCCN)C(=O)N[C@@H](CC(C)C)C(=O)N[C@@H](CCCNC(=N)N)C(=O)N[C@@]1(C)CCCC=CCCC[C@@](C)(C(=O)N[C@@H](CC(=O)O)C(=O)NCC(=O)NCC(=O)NCC(=O)N[C@@H](CCCNC(=N)N)C(=O)N[C@@H](CCCNC(=N)N)C(=O)N[C@@H](CCCNC(=N)N)C(=O)N[C@@H](CCCNC(=N)N)C(=O)N[C@@H](CCCNC(=N)N)C(=O)N[C@@H](CCCNC(=N)N)C(=O)N[C@@H](CCCNC(=N)N)C(=O)N[C@@H](CCCNC(=N)N)C(=O)N[C@@H](CCCNC(=N)N)C(N)=O)NC(=O)[C@H](CC(=O)O)NC(=O)[C@H](CC(C)C)NC(=O)[C@H](CC(C)C)NC1=O | measured: p21 | 10 µM, 24 h, added: 1α,25(OH)2D3 30 nM | relative to: GAPDH | mRNA level | decreased |
| O=c1cc(-c2ccc(O)cc2)oc2cc(O)cc(O)c12 | cell growth or viability, ATP luminescence | 24 h |  | IC50 | 100 µM |
